Assay results pooled from the literature.
Protocols differ between the studies behind these lines. “And” joins repeats or separate records; there may be more than shown. In brackets after ≈: the same amount, converted by molar mass.
CYP1A2: Cytochrome P450 1A2 (CYP1A2, Homo sapiens, UniProt P05177)
cyp121: Mycocyclosin synthase (cyp121, Mycobacterium tuberculosis, UniProt P9WPP7)

Amino acid sequences for entries named in this document (tags omitted). Residues count along the entry.
UniProt P05177, whole entry: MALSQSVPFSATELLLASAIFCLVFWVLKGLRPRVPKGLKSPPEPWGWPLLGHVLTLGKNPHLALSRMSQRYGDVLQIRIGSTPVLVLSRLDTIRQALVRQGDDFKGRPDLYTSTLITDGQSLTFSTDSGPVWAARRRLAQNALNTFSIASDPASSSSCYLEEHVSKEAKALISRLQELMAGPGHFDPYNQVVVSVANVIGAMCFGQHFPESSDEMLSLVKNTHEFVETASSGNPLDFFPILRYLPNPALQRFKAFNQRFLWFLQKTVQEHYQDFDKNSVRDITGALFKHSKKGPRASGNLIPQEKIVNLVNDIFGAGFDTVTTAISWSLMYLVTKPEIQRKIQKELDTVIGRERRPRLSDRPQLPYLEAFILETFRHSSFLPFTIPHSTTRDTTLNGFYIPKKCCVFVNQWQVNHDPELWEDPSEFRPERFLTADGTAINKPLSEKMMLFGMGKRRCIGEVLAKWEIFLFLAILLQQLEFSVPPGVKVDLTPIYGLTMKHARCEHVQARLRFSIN
UniProt P9WPP7, whole entry: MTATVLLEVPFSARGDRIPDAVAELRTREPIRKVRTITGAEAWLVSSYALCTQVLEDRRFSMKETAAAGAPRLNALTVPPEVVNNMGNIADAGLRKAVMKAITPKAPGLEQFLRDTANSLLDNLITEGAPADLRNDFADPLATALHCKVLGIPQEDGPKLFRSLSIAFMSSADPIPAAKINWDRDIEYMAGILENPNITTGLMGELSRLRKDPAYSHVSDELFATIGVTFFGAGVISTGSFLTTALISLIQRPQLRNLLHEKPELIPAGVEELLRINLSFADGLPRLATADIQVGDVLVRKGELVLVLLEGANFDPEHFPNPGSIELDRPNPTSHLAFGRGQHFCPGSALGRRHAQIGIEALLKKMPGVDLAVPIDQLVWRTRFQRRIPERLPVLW
UniProt P28566, whole entry: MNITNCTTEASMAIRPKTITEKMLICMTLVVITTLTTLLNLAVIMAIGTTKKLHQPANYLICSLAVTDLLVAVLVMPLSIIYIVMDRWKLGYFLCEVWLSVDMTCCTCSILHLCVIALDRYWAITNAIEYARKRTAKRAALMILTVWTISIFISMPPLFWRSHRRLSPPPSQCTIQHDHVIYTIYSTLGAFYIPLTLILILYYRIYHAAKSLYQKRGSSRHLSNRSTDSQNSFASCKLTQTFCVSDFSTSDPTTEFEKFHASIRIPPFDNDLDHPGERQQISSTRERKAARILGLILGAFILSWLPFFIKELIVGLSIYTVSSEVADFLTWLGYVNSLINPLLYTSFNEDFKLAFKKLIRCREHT
UniProt P35353, 24-415 limits assumed: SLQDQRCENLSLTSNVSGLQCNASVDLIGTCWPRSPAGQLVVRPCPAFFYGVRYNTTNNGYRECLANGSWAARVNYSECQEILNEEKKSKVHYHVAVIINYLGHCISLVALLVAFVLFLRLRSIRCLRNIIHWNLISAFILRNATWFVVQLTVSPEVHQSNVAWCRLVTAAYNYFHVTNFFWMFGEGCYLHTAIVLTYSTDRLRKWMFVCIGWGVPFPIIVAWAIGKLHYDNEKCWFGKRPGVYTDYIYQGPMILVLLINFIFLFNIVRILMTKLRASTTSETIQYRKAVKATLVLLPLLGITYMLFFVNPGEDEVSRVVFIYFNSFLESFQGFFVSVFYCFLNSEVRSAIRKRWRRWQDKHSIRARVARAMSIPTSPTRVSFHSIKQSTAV

SMILES = Cc1ccc(OCCN(C)C)cc1C(=O)N[C@H](C)c1cc(-c2ccn(C)n2)nc2ccccc12; tested on = Vero E6 cells; setting = 7.812 µM; measurement = viability; result = 108% and 117%
SMILES = [11CH3]Nc1ccc(C(=O)C2CCN(C3Cc4ccccc4CC3O)CC2)cc1 (single isomer, unassigned); system = Sprague-Dawley rat, brain; setting = 30 min; measurement = uptake; result = 0.272 %ID/g
SMILES = COc1cccc2c(N3CCC(CCP(=O)(O)O)CC3)ncnc12; system = mouse, serum; setting = subcutaneous, 300 mg/kg daily, 24 h after dose, dosed for 6 days; measurement = mean trough concentration; result = ~100 nM
SMILES = NC[C@@H](NC[C@@H]1CCCN1C[C@@H](CO)NC[C@@H](NCCc1ccc(Cl)c(Cl)c1)c1ccccc1)c1ccccc1; tested on = Klebsiella pneumoniae; assay = bacterial growth; setting = 24 µM, fold shift of IC90, with: amikacin; measurement = potentiation of amikacin; result = 2 fold
SMILES = COc1ccc(NC(=O)CN2CCCN(S(=O)(=O)c3cccs3)CC2)c(OC)c1; tested on = CYP1A2; assay = enzyme inhibition, inhibitor; measurement = IC50; result = 8.46 µM
SMILES = C[C@H](CS)C(=O)N[C@@H](Cc1c[nH]c2ccccc12)C(=O)O; tested on = Enterobacter aerogenes; system = VIM-1 producing; setting = 25 µM, with: meropenem; measurement = MIC of meropenem; result = 16 µg/mL
SMILES = O=C(NC1CCN(c2ncnc3[nH]cnc23)CC1)c1cccc(S(=O)(=O)Nc2ccc(Cl)cc2)c1; tested on = A549-ACE2; setting = 7.407 µM; measurement = viability; result = 100%
SMILES = [2H]C1(C(=O)Nc2ccc3cc(C(=O)O)ccc3c2)CCN(S(=O)(=O)c2ccc(C)cc2C)CC1; system = human liver microsomes; measurement = intrinsic clearance; result = 7.2 µL/min/mg
SMILES = O=C(NC1CCN(c2ncnc3[nH]cnc23)CC1)c1cccc(NS(=O)(=O)c2ccc(Cl)cc2)c1; tested on = A549-ACE2; setting = 0.823 µM; measurement = viability; result = 98.1%
SMILES = C1c2c(-c3nnn[nH]3)n[nH]c2[C@@H]2C[C@H]12 (relative stereo); assay = rotarod test; system = wild-type mouse; setting = subcutaneous, 10 mg/kg; measurement = motor coordination; result = no effect
SMILES = COc1ccc(S(=O)(=O)N2CCCN(CC(=O)Nc3ccccc3OC)CC2)cc1; tested on = CYP1A2; assay = enzyme activity, inhibitor; measurement = IC50; result = > 30 µM
SMILES = Cc1ccc(S(=O)(=O)Nc2cccc(C(=O)NC3CCN(c4ncnc5[nH]cnc45)CC3)c2)cc1Cl; tested on = A549-ACE2; setting = 22.22 µM; measurement = viability; result = 92.9%
SMILES = CCn1ccc(-c2cc(-c3cnn(C)c3)cc([C@@H](C)NC(=O)c3cc(OCCN(C)C)ccc3C)c2)n1; tested on = Vero-AT; setting = 64 µM; measurement = cytotoxicity; result = toxic
SMILES = C=CC(c1ccc(-c2ccc(OC)c(C)c2)cc1)n1ccnc1 (single isomer, unassigned); tested on = cyp121; setting = enantiomer E2; measurement = Kd; result = 2.6 µM
SMILES = COc1ccc(CN[C@@H]2CO[C@H](C(c3ccccc3)c3ccccc3)C[C@H]2O)cc1; tested on = HTR1E (Homo sapiens, UniProt P28566); assay = radioligand binding; setting = 10 µM, with: [3H]5-HT; measurement = inhibition; result = 3.4%
SMILES = NCCNCCSc1ccccc1; system = Swiss Albino mouse, female; setting = oral, 400 mg/kg, single dose, non-compartmental; measurement = mean residence time (MRT0-inf); result = 8.48 h
SMILES = CC1(C)CC[C@]2(C(=O)O)CC[C@]3(C)C(=CC[C@@H]4[C@@]5(C)CC[C@H](OC(=O)NCc6ccccc6)C(C)(C)[C@@H]5CC[C@]43C)[C@@H]2C1; system = C57BL/6 mice, brain; setting = intraperitoneal, 85 µmol/kg; measurement = MRT(0-inf); result = 63.2 h
SMILES = CC(C)C[C@@H](NC(=O)[C@H](NC(=O)[C@H]1CCCN1)[C@H](C)O)C(=O)N[C@H](Cc1c[nH]cn1)C(=O)N[C@@H](C(=O)N[C@H](Cc1c[nH]cn1)C(=O)N[C@H](CC(N)=O)C(=O)N[C@H](CCCNC(=N)N)C(=O)N[C@H](CCCNC(=N)N)C(=O)N[C@H](CCCNC(=N)N)C(=O)N[C@H](CCCNC(=N)N)C(=O)N[C@H](CCCNC(=N)N)C(N)=O)[C@H](C)O; system = healthy male humans; setting = 160 320 mg daily; measurement = subjects with non-serious adverse events; result = 6.7%
SMILES = CN1CC[C@]23c4c5ccc(O)c4O[C@H]2c2ncc(-c4ccc(Cl)cc4)cc2C[C@@]3(OCCCc2ccccc2)[C@H]1C5; assay = tolerance; system = CD-1 mouse, chemotherapy-induced neuropathy; setting = sc, 10 mg/kg twice daily, 4 days; measurement = days to zero efficacy; result = 5.2 days
SMILES = CCC(c1ccc(-c2ccc(OC(F)(F)F)cc2)cc1)n1ccnc1 (stereo not drawn); tested on = cyp121; setting = racemate; measurement = Kd; result = ≤ 6 µM
SMILES = Cc1cccc2c1[nH]c1c(-c3ccc(Cl)c(Cl)c3)nc(C(=O)NCCNCCO)cc12; setting = pH 7.4; measurement = kinetic solubility; result = 55.4 µM (≈ 25.3 µg/mL)
SMILES = Cc1ccc2nc(-c3ccc4nc(-c5ccc(NC(=O)c6cccc(Cl)c6)cc5)sc4c3)sc2c1S(=O)(=O)O; system = mock assay matrix; setting = pH 6.5; measurement = solubility; result = 17.8 µg/mL
SMILES = COCCN(CCOC)c1nc(C)nc2c(-c3c(OC)cc([76Br])cc3OC)c(C)nn12; tested on = Corticotropin-releasing factor receptor 1 (Rattus norvegicus, UniProt P35353); assay = ex vivo autoradiography; system = rat, prefrontal cortex; how to read = reference: non-receptor region; measurement = fold increase; result = ~2 fold
SMILES = C=CC(=O)Nc1cc(-n2c(=O)ccc3cnc4ccc(-c5cn[nH]c5)cc4c32)ccc1C; tested on = Hs 505.T; assay = cell growth; setting = 72 h; measurement = GI50; result = 1 µM
SMILES = NC[C@@H](NC[C@@H]1CCCN1C[C@@H](CO)NC[C@@H](NCCC1CC2CCC1C2)c1ccccc1)c1ccccc1 (stereo partly drawn); tested on = Acinetobacter baumannii; assay = bacterial growth; setting = 24 µM, fold shift of IC90, with: amikacin; measurement = potentiation of amikacin; result = 4 fold
SMILES = O=C(NC1CCN(c2ncnc3[nH]cnc23)CC1)c1cccc(NS(=O)(=O)c2ccc([N+](=O)[O-])cc2)c1; tested on = A549-ACE2; setting = 0.09145 µM; measurement = viability; result = 107%
SMILES = O=C(N[C@H](Cc1ccccc1)C(=O)O)c1sc2cc(F)ccc2c1Cl; tested on = CYP1A2; assay = enzyme activity; setting = concentration not given; measurement = inhibition; result = no effect
SMILES = COCn1cc(-c2cc([C@@H](C)NC(=O)c3cc(OCCN(C)C)ccc3C)c3ccccc3n2)cn1; tested on = Vero E6 cells; setting = 31.25 µM; measurement = viability; result = 103% and 102%
SMILES = C=C(C)[C@@H]1CC[C@]2(C(=O)NCC(=O)O)CC[C@]3(C)[C@H](CC[C@@H]4[C@@]5(C)CC[C@H](O)C(C)(C)[C@@H]5CC[C@]43C)[C@@H]12; setting = 50 µL of 5 mg/mL DMSO solution; measurement = aqueous solubility; result = 3 dilution steps
SMILES = COc1ccc(S(=O)(=O)Nc2cccc(C(=O)NC3CCN(c4ncnc5[nH]cnc45)CC3)c2)cc1; tested on = A549-ACE2; setting = 200 µM; measurement = viability; result = 83.5%
SMILES = CC(C)[C@H](N)C(=O)N[C@@H](Cc1ccc(O)cc1)C(=O)N[C@@H](Cc1ccc(O)cc1)C(=O)N[C@@H](CCCNC(=N)N)C(=O)O; system = Lispro formulation; setting = pH 7 to 7.8; measurement = solubility; result = ≥ 1000 µM
SMILES = CN(C(=O)Cc1ccc(Cl)c(Cl)c1)[C@@H]1CCCC[C@H]1N1CCCCCC1; system = human liver microsomes; setting = 0.5 µM, with: NADPH; measurement = intrinsic clearance; result = 15 mL/min/g
SMILES = Cc1cccc(NC(=O)C2CC3CCC2C3)c1C (stereo not drawn); tested on = CYP1A2; assay = enzyme activity, inhibitor; measurement = IC50; result = 7.75 µM

Some of these lines once more:
SMILES = CN1CC[C@]23c4c5ccc(O)c4O[C@H]2c2ncc(-c4ccc(Cl)cc4)cc2C[C@@]3(OCCCc2ccccc2)[C@H]1C5; assay = tolerance; system = CD-1 mouse, chemotherapy-induced neuropathy; setting = sc, 10 mg/kg twice daily, 4 days; measurement = days to zero efficacy; result = 5.2 days
SMILES = CC(C)[C@H](N)C(=O)N[C@@H](Cc1ccc(O)cc1)C(=O)N[C@@H](Cc1ccc(O)cc1)C(=O)N[C@@H](CCCNC(=N)N)C(=O)O; system = Lispro formulation; setting = pH 7 to 7.8; measurement = solubility; result = ≥ 1000 µM
